Experimental data of several laboratories.
Lines come from different studies, so protocols differ. ± marks the error that the study gave.

`CCCCn1cc(C(=O)O)c(=O)c2cc(F)c(Nc3cccc(Cl)c3)c(N)c21` gave an IC50 of 70.3 µM (SW480; cell growth or viability, SRB).
`Cc1cc(O)cc(C)c1C[C@H](NC(=O)[C@H](N)CCCNC(=N)N)C(=O)N[C@@H](CCCN)C(=O)N[C@@H](Cc1ccccc1)C(N)=O` — result for viability: “no effect” (HeLa 705; WST-1; up to 100 µM, 24 h; relative to: untreated).
The internalization ratio of `CC[C@H](C)[C@H](NC(=O)[C@H](CCCCN)NC(=O)[C@H](C)NC(=O)[C@H](CCCNC(=N)N)NC(=O)[C@H](CCCCN)NC(=O)[C@H](CC(N)=O)NC(=O)[C@H](CCC(N)=O)NC(=O)[C@H](Cc1ccccc1)NC(=O)[C@H](Cc1c[nH]c2ccccc12)NC(=O)[C@@H](NC(=O)[C@H](CCCCN)NC(=O)[C@@H](NC(=O)[C@H](CCC(N)=O)NC(=O)[C@H](CO)NC(=O)CNC(=O)CNC(=O)CNC(=O)CNC(=O)CCCC[C@@H]1SC[C@@H]2NC(=O)N[C@@H]21)[C@@H](C)CC)[C@@H](C)CC)C(=O)N[C@@H](CCCCN)C(=O)N[C@@H](CCCCN)C(N)=O` is reported as 3 (CHO pgsA-745 GAG-deficient; MALDI-TOF MS; 7 µM, 1 h, 37 °C; relative to: CHO-K1 and SK-OV-3 over pgsA-745).
`CCCCCCCCCCCCCC(=O)Nc1ccccc1SSc1ccccc1NC(=O)CCCCCCCCCCCCC`: cytotoxicity “not toxic” (HaCaT; MTT; concentration not given).
`CCCCn1cc(C(=O)O)c(=O)c2cc(F)c3c(nnn3-c3cccc(Cl)c3)c21` gave an IC50 of 144 µM (HT-29; cell growth or viability, SRB).
With `CN(C)C12C3CCC4C3C3C(CCC31)C42` the CC50 was greater than 100 µM (dog cells; cytotoxicity; 3 (unit not given)).
With `CC1N=C(CCCCCCCCCCC2=CC(CCCCCCCCCCC3=NC(C)C(O)CC3)C3CCCN3C2)CCC1O` (centres unmarked) the IC90 was greater than 20 µg/mL (PMA-differentiated THP-1; cytotoxicity, Neutral Red).
For `CC(C)[C@@H]1NC(=O)CNC(=O)[C@H](CC(N)=O)NC(=O)[C@H](CCCNC(=N)N)NC(=O)[C@H](Cc2ccc(O)cc2)NC(=O)[C@H](C(C)C)NC(=O)[C@@H](NC(=O)[C@@H](NC(=O)[C@H](CC(N)=O)NC(=O)[C@H](Cc2c[nH]c3ccccc23)NC(=O)[C@H](C)NC(=O)[C@H](Cc2ccccc2)NC(=O)CNC(=O)[C@H](CCCCN)NC(=O)[C@H](Cc2ccccc2)NC(=O)[C@H](Cc2ccccc2)NC(=O)[C@H](CCCCN)NC(=O)OCC2c3ccccc3-c3ccccc32)C(C)C)CSSC[C@@H](C(=O)N[C@@H](Cc2c[nH]cn2)C(=O)N[C@@H](CCCNC(=N)N)C(=O)N[C@@H](CCCNC(=N)N)C(=O)N[C@@H](C)C(=O)N[C@@H](CC(N)=O)C(N)=O)NC(=O)[C@H](C(C)C)NC(=O)[C@H](CCCNC(=N)N)NC1=O`, the viability was greater than 90% (HaCaT; CCK-8; up to 128 µM, 12 h).
`C[C@H](NC(=O)[C@H](CCCNC(=N)N)NC(=O)[C@H](CCC(=O)O)NC(=O)[C@H](CCCNC(=N)N)NC(=O)[C@H](CCCNC(=N)N)NC(=O)[C@@H](NC(=O)[C@H](CCCNC(=N)N)NC(=O)[C@H](C)NC(=O)[C@H](CCCNC(=N)N)NC(=O)[C@H](CCC(=O)O)NC(=O)[C@@H](N)CCCNC(=N)N)[C@@H](C)O)C(=O)N[C@@H](CCCNC(=N)N)C(=O)N[C@H](C(=O)N[C@@H](CCCNC(=N)N)C(=O)N[C@@H](CCC(=O)O)C(=O)N[C@@H](CCCNC(=N)N)C(=O)N[C@@H](C)C(=O)N[C@@H](CCCNC(=N)N)C(=O)N[C@H](C(=O)N[C@@H](CCCNC(=N)N)C(=O)O)[C@@H](C)O)[C@@H](C)O` — result for cytotoxicity: “not toxic” (HUVEC; tube formation; concentration not given).
`CC[C@H](C)[C@H](NC(=O)[C@H](CCCCN)NC(=O)[C@H](CC(C)C)NC(=O)[C@H](C)NC(=O)[C@H](CC(C)C)NC(=O)[C@H](CO)NC(=O)[C@H](C)NC(=O)[C@H](CC(C)C)NC(=O)[C@H](Cc1ccccc1)NC(=O)[C@@H]1CCCN1C(=O)[C@H](CC(C)C)NC(=O)[C@@H](N)Cc1ccccc1)C(=O)N[C@@H](CC(C)C)C(N)=O` gave a viability of roughly 100% (HaCaT; CCK-8; 2 µM).
`CC(C)C[C@H](NC(=O)[C@H](CCCNC(=N)N)NC(=O)[C@H](Cc1ccccc1)NC(=O)[C@H](Cc1ccccc1)NC(=O)[C@@H](N)[C@@H](C)O)C(=O)N[C@@H](Cc1ccccc1)C(=O)N[C@@H](CC(N)=O)C(=O)N[C@@H](CCCNC(=N)N)C(=O)N[C@@H](C)C(=O)N[C@@H](CCCCN)C(=O)N[C@@H](CCCNC(=N)N)C(=O)N[C@@H](Cc1c[nH]cn1)C(=O)N[C@@H](Cc1c[nH]cn1)C(=O)NCC(=O)N[C@@H](Cc1ccc(O)cc1)C(=O)N[C@@H](CCCCN)C(=O)N[C@@H](CCCNC(=N)N)C(=O)N[C@@H](CCCCN)C(=O)N[C@@H](Cc1ccccc1)C(=O)N[C@@H](Cc1c[nH]cn1)C(=O)O`: cell viability “no effect” (MC3T3-E1; CCK-8; up to 2 × MBC, 24 h; relative to: untreated).
For `Clc1cc2oc3c(Cl)c(Cl)c(Cl)cc3c2cc1Cl`, the mass balance was 93 ± 7% (Caco-2 monolayer; GC-HRMS; gut-on-a-chip; 0.2 ng/mL, 24 h, 1% DMSO).
`CC(C)[C@H](NC(=O)[C@H](CCCCN)NC(=O)[C@H](CCCNC(=N)N)NC(=O)[C@@H](NC(=O)[C@H](C)NC(=O)[C@H](CC(N)=O)NC(=O)[C@H](CCCNC(=N)N)NC(=O)[C@@H](NC(=O)[C@H](CCCCN)NC(=O)[C@H](CCCCN)NC(=O)[C@@H](NC(=O)[C@@H](NC(=O)[C@H](CCCNC(=N)N)NC(=O)[C@H](CCCNC(=N)N)NC(=O)[C@H](Cc1c[nH]c2ccccc12)NC(=O)[C@H](Cc1c[nH]c2ccccc12)NC(=O)CN)[C@@H](C)O)C(C)C)C(C)C)C(C)C)C(=O)O` has a haemolysis of less than 2% (sheep red blood cells; 512 µg/mL, 1 h, 37 °C; relative to: Triton X-100).
Under “Papp (apical to basolateral)”, `Cc1cc(O)cc(C)c1C[C@H](N)C(=O)N[C@H](CCCNC(=N)N)C(=O)N[C@H]1Cc2ccccc2CN(CCC(N)=O)C1=O` is recorded as 13.7 ×10⁻⁶ cm/s (brain-like endothelial cells with pericytes; human in vitro BBB model; 200 µM, 2 h, 37 °C).
`CCN(CCCCOc1ccc(CCC(=O)N2CCC(Cc3ccccc3)CC2)cc1OC)Cc1ccccc1` has a Papp(A-B) of 7.99 to 8.84 ×10⁻⁶ cm/s (Caco-2 monolayer; 120 min, over tested concentrations).
`Clc1cc2c(cc1Cl)Oc1c(cc(Cl)c(Cl)c1Cl)O2` has a mass balance of 85 ± 2% (Caco-2 monolayer; GC-HRMS; static Transwell; 0.2 ng/mL, 24 h, 1% DMSO, congener mixture).
For `CCCCn1cc(C(=O)O)c(=O)c2cc(F)c(Nc3cccc(Cl)c3)c([N+](=O)[O-])c21`, the IC50 was 261 ± 19.1 µg/mL (SW480; cell growth, SRB; 72 h).
The CC50 of `C1=[N+]2CCCC[N+]3=Cc4ccc5[n]4[Au-]23[n]2c1ccc2-c1nc2ccccc2nc1-5.F[P-](F)(F)(F)(F)F` is reported as 57 µM (breast cancer cell lines; NCI60 panel mean).
The cytosolic entry of `N=C(N)NCCC[C@@H]1NC(=O)[C@H](Cc2csc3ccccc23)NC(=O)[C@@H](Cc2ccccc2)NC(=O)[C@H](Cc2ccccc2)NC(=O)[C@H](CCC(=O)NCCOCCOCC(=O)N[C@@H](CCCCNC(=O)c2ccc3c(c2)C(=O)OC32c3ccc4cc(O)ccc4c3Oc3c2ccc2cc(O)ccc32)C(N)=O)NC(=O)[C@@H](CCCNC(=N)N)NC(=O)[C@H](CCCNC(=N)N)NC(=O)[C@@H](CCCNC(=N)N)NC1=O` is reported as 85 ± 7% (HeLa; cell penetration, flow cytometry; 5 µM, 2 h, 37 °C, 1% FBS; relative to: CPP12).
With `C#CC[C@H](NC(=O)CNC(=O)[C@H](CO)NC(=O)[C@H](CCCCN)NC(=O)[C@H](C)N(C)C(=O)[C@H](C)NC(=O)[C@@H](NC(=O)[C@@H](NC(=O)[C@H](CCCNC(=N)N)NC(=O)[C@H](Cc1c[nH]cn1)NC(=O)[C@@H]1CCCN1C(=O)[C@H](Cc1c[nH]c2ccccc12)NC(=O)[C@@H](N)CCSC)C(C)C)[C@@H](C)O)C(=O)O` the CP50 was 8.82 ± 0.81 µM (HeLa HaloTag-GFP-Mito; cell penetration, chloroalkane penetration; 4 h).
The mass balance of `Clc1cc2oc3cc(Cl)c(Cl)c(Cl)c3c2cc1Cl` is reported as 86 ± 1% (Caco-2 monolayer; GC-HRMS; static Transwell; 0.2 ng/mL, 24 h, 1% DMSO, congener mixture).
With `NCC12C3CCC4C3C3C(CCC31)C42` the CC50 was 78 µM (dog cells; cytotoxicity; 3 (unit not given)).
`CC[C@H](C)[C@H](N)C1=N[C@H](C(=O)N[C@@H](CC(C)C)C(=O)N[C@H](CCC(=O)O)C(=O)N[C@H](C(=O)N[C@H]2CCCCNC(=O)[C@H](CC(N)=O)NC(=O)[C@@H](CC(=O)O)NC(=O)[C@H](Cc3c[nH]cn3)NC(=O)[C@@H](CC(C)C)NC(=O)[C@H]([C@@H](C)CC)NC(=O)[C@@H](CCCN)NC2=O)[C@@H](C)CC)CS1` has a hemolysis of 0% (sheep red blood cells; 128 µg/mL, 20 h, 37 °C; relative to: Triton X-100 0.1%).
With `CC(=N)N1CC23C4C5CC5C5C4C4C2C2CC2C4C53C1` (centres unmarked) the CC50 was 31 µM (dog cells; cytotoxicity; 3 (unit not given)).
For `Clc1c(Cl)c(Cl)c2c(c1Cl)Oc1c(Cl)c(Cl)c(Cl)c(Cl)c1O2`, the cellular fraction was 61% (Caco-2 monolayer; dynamic gut-on-a-chip; 0.2 ng/mL, 24 h, 1% DMSO; relative to: exposure).
`C#CC[C@H](NC(=O)CNC(=O)[C@H](CO)NC(=O)[C@@H]1CCCCNC(=O)CCCC(=O)N[C@@H](CCSC)C(=O)N[C@@H](Cc2c[nH]c3ccccc23)C(=O)N2CCC[C@H]2C(=O)N[C@@H](Cc2c[nH]cn2)C(=O)N[C@@H](CCCNC(=N)N)C(=O)N[C@@H](C(C)C)C(=O)N[C@@H]([C@@H](C)O)C(=O)N[C@@H](C)C(=O)N(C)[C@@H](C)C(=O)N1)C(=O)O`: “cytosolic access ratio” roughly 7 fold (HeLa HaloTag-GFP-Mito; chloroalkane penetration; 4 h; relative to: compound over linear variant).
The IC50 of `CCCCn1cc(C(=O)O)c(=O)c2cc(F)c3c(nnn3-c3ccccc3Cl)c21` is reported as 92.1 ± 5.52 µg/mL (HT-29; cell growth, SRB; 72 h).
`c1csc(CNC23C4CCC5C4C4C(CCC42)C53)c1` gave a CC50 of no less than 20 µM (dog cells; cytotoxicity; 3 (unit not given)).
The IC50 of `CCCCn1cc(C(=O)O)c(=O)c2cc(F)c(Nc3ccccc3Cl)c([N+](=O)[O-])c21` is reported as 27.6 ± 2.48 µg/mL (MCF7; cell growth, SRB; 72 h).
The hemolysis of `CC[C@H](C)[C@H](N)C1=N[C@H](C(=O)N[C@@H](Cc2ccccc2)C(=O)N[C@H](CCC(=O)O)C(=O)N[C@H](C(=O)N[C@H]2CCCCNC(=O)[C@H](CC(N)=O)NC(=O)[C@@H](CC(=O)O)NC(=O)[C@H](Cc3c[nH]cn3)NC(=O)[C@@H](Cc3ccccc3)NC(=O)[C@H]([C@@H](C)CC)NC(=O)[C@@H](CCCN)NC2=O)[C@@H](C)CC)CS1` is reported as 0% (sheep red blood cells; 128 µg/mL, 20 h, 37 °C; relative to: Triton X-100 0.1%).
For `CC[C@H](C)[C@H](NC(=O)[C@H](CCCCN)NC(=O)[C@H](CCCCN)NC(=O)[C@H](Cc1ccccc1)NC(=O)[C@H](Cc1ccccc1)NC(=O)[C@H](CCCCN)NC(=O)[C@H](CCCCN)NC(=O)[C@H](Cc1ccccc1)NC(=O)[C@H](CCCNC(=N)N)NC(=O)[C@@H](N)CCCCN)C(=O)N[C@@H](CCCCN)C(=O)N[C@@H](CCCCN)C(=O)N[C@@H](CO)C(=O)N[C@H](C(=O)N[C@@H](CCCCN)C(=O)N[C@@H](CCCCN)C(=O)N[C@@H](CCCNC(=N)N)C(=O)N[C@H](C(=O)N[C@@H](CCCCN)C(=O)N[C@@H](CCCCN)C(=O)N[C@@H](CC(C)C)C(=O)N[C@@H](Cc1ccccc1)C(=O)N[C@@H](CCCCN)C(=O)N[C@@H](CCCCN)C(=O)N1CCC[C@H]1C(=O)N[C@@H](CCCNC(=N)N)C(=O)N[C@H](C(=O)N[C@H](C(=O)N1CCC[C@H]1C(=O)N[C@H](C(=O)N[C@@H](CO)C(=O)N[C@H](C(=O)N1CCC[C@H]1C(=O)N[C@@H](Cc1ccccc1)C(=O)O)[C@@H](C)CC)[C@@H](C)CC)[C@@H](C)CC)C(C)C)C(C)C)C(C)C`, the IC50 was greater than 128 µg/mL (HUVEC; cytotoxicity, MTT; DMEM with 10% FBS; 48 h).
For `O=C(/C=C/c1ccccc1)c1cc2ccccc2oc1=O`, cytotoxicity read “not toxic” (Vero; up to 100 µg/mL).

Repeated from above:
The mass balance of `Clc1cc2oc3cc(Cl)c(Cl)c(Cl)c3c2cc1Cl` is reported as 86 ± 1% (Caco-2 monolayer; GC-HRMS; static Transwell; 0.2 ng/mL, 24 h, 1% DMSO, congener mixture).
With `CC(=N)N1CC23C4C5CC5C5C4C4C2C2CC2C4C53C1` (centres unmarked) the CC50 was 31 µM (dog cells; cytotoxicity; 3 (unit not given)).
The IC50 of `CCCCn1cc(C(=O)O)c(=O)c2cc(F)c(Nc3ccccc3Cl)c([N+](=O)[O-])c21` is reported as 27.6 ± 2.48 µg/mL (MCF7; cell growth, SRB; 72 h).
